Measurements collected from several papers.
Each numbered part is a random draw from the data of one study; scales do not carry over between parts. Several values in a cell are separate wells, animals, samples, runs or records.
Sequence of UniProt P28482 (whole entry, looked up): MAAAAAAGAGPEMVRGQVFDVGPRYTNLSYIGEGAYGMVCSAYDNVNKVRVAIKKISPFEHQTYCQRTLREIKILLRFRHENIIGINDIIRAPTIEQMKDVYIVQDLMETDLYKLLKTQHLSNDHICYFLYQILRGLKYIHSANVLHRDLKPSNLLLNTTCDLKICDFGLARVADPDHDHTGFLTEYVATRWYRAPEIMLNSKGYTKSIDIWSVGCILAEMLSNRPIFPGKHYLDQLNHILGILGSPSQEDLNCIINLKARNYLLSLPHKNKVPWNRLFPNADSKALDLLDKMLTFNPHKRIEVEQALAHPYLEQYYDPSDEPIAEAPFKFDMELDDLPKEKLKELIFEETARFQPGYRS
Sequence of UniProt P50750 (whole entry, looked up): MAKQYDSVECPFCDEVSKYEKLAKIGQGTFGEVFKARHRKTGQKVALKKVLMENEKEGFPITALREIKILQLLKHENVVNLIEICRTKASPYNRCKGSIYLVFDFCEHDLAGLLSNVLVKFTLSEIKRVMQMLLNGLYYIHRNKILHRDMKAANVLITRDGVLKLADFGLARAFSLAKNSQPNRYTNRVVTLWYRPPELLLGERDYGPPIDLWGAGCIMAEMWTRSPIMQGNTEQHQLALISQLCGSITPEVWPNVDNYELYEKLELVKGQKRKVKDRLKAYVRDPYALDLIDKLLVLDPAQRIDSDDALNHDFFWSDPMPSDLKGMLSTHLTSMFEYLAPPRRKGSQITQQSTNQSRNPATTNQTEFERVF
Sequence of UniProt Q16832 (whole entry, looked up): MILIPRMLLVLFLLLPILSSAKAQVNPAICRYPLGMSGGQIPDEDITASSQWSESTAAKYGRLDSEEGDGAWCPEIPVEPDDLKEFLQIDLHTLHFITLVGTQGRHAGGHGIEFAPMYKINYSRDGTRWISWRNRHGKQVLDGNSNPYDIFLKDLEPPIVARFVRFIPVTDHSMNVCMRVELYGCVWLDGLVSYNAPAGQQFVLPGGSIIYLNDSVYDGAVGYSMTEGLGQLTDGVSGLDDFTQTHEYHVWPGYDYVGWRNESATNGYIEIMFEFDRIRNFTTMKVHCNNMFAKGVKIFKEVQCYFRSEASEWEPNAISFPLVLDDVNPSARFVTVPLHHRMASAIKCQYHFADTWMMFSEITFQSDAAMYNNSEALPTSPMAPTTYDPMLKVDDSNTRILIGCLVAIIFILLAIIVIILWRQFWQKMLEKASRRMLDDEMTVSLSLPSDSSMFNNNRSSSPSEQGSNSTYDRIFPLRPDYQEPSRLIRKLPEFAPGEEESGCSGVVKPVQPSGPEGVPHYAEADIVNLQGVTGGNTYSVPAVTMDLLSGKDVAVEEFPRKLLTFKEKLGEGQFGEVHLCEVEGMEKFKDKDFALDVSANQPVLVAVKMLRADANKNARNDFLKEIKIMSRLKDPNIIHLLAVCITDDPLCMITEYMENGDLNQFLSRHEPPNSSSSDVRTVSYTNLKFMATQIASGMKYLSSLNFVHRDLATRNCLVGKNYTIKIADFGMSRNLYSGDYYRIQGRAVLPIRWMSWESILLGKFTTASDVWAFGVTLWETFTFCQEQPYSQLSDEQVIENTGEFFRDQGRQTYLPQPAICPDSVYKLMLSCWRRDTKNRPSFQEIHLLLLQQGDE
Sequence of UniProt Q8N568 (whole entry, looked up): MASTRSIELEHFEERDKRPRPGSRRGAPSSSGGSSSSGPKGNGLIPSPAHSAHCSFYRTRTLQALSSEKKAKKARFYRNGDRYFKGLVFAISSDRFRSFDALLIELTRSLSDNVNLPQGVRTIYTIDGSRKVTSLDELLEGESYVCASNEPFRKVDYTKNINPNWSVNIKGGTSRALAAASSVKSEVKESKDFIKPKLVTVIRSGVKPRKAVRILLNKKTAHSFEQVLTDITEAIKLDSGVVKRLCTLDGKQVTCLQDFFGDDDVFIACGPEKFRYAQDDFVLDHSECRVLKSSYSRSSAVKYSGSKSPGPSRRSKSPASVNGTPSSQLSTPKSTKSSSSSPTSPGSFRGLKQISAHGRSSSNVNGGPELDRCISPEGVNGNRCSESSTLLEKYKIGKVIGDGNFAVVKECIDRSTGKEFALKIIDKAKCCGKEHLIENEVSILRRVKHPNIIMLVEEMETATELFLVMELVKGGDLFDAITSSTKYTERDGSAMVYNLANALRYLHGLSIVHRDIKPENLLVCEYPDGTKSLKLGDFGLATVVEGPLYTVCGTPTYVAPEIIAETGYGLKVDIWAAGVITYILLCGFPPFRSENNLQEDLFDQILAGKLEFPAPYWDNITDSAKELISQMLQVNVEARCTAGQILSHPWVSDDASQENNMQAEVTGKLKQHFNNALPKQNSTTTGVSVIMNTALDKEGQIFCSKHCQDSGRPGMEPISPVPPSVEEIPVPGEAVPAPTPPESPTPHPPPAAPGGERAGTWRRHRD
Sequence of UniProt P0C264 (whole entry, looked up): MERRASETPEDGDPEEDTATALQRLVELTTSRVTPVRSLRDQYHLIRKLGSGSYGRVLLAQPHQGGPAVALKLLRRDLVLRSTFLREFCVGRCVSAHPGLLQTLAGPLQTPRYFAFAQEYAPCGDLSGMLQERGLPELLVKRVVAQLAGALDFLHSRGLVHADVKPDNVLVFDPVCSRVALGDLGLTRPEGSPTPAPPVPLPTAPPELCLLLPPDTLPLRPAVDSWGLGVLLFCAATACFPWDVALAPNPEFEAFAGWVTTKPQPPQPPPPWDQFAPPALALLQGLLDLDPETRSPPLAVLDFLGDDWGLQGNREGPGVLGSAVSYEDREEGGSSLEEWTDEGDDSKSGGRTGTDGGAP
Sequence of UniProt Q99558 (whole entry, looked up): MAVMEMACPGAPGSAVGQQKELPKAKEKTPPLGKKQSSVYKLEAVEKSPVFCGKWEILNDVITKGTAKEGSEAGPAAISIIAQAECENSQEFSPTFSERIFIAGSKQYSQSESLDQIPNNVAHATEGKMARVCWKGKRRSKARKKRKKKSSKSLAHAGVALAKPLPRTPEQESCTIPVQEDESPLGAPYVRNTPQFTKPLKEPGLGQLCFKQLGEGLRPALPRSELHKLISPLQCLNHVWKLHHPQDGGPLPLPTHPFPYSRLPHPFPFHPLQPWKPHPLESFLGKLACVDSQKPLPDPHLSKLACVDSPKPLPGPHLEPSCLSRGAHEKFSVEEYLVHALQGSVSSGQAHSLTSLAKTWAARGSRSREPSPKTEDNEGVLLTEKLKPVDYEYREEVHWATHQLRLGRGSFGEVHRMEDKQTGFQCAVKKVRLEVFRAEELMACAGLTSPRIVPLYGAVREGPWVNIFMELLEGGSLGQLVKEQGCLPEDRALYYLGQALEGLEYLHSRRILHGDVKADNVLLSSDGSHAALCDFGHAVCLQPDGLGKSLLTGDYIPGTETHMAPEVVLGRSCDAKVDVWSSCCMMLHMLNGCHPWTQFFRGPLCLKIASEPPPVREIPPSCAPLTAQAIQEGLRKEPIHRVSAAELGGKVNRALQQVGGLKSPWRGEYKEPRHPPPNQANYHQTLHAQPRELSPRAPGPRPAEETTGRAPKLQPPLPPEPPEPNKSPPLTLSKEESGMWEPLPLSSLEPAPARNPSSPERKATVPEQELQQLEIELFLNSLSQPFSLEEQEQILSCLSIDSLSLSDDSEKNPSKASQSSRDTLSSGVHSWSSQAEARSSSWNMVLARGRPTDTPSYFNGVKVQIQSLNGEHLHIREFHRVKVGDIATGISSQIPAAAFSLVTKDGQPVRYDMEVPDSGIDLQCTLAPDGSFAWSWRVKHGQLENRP
Sequence of UniProt Q15759 (whole entry, looked up): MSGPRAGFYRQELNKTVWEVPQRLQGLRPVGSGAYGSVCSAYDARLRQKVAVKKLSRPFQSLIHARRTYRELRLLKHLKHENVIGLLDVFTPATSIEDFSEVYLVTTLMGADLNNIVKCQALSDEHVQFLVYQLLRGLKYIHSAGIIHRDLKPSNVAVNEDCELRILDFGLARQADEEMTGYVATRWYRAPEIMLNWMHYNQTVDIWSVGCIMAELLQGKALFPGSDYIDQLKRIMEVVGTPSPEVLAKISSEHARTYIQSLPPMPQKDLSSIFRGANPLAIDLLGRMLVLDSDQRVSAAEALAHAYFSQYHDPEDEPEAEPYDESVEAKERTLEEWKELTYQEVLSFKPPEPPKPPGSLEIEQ
Sequence of UniProt Q6P2M8 (whole entry, looked up): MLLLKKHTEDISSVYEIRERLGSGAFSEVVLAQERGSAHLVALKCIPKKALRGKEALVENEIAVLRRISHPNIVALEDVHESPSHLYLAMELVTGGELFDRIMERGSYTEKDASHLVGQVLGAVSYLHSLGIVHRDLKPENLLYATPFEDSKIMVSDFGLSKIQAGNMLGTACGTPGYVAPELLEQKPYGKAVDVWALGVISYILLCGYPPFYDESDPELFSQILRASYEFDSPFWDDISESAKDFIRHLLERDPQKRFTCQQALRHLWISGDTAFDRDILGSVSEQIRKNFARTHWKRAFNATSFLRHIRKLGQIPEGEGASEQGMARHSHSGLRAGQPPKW

Study 1
Cell line: mouse MPNST tumor cells
Technique: high-content nuclear imaging
Item: cell number
Concentration: 10 µM
Time: 12 h
Notes: mean of 2 replicates
Reference: plate mean
Reading: higher = more cells
Structure (SMILES) | nuclei count
Cc1[nH]c(=O)c(C#N)cc1-c1ccncc1 | 2.21 z-score and 1.37 z-score
COc1ccccc1Oc1c(NS(=O)(=O)c2ccc(C(C)(C)C)cc2)nc(-c2ncccn2)nc1OCCO | 1.62 z-score and 0.135 z-score and 0.333 z-score
CCOc1nc2cccc(C(=O)OCc3oc(=O)oc3C)c2n1Cc1ccc(-c2ccccc2-c2noc(=O)[nH]2)cc1 | 1.54 z-score
CC1(C)O[C@@H]2C[C@H]3[C@@H]4C[C@H](F)C5=CC(=O)C=C[C@]5(C)[C@H]4[C@@H](O)C[C@]3(C)[C@]2(C(=O)CO)O1 | 3.23 z-score
CC(=O)OCC(=O)NCCCOc1cccc(CN2CCCCC2)c1 | -0.0499 z-score
CCOC(=O)[C@H](CCc1ccccc1)N[C@@H](C)C(=O)N1[C@H](C(=O)O)C[C@@H]2CCC[C@@H]21 | 0.054 z-score and 1.18 z-score
O=C(c1ccc(OCCN2CCCCC2)cc1)c1c(-c2ccc(O)cc2)sc2cc(O)ccc12 | -3.14 z-score and -2.19 z-score
CN(C)CC/C=C1/c2ccccc2COc2ccc(CC(=O)O)cc21 | 2.33 z-score and 1.93 z-score
O=NN(CCCl)C(=O)NCCCl | -1.22 z-score
Cc1ccc(-n2nc(C(C)(C)C)cc2NC(=O)Nc2ccc(OCCN3CCOCC3)c3ccccc23)cc1 | 2.8 z-score
CN[C@@H]1[C@@H](O)[C@@H](O[C@@H]2[C@@H](O)[C@H](O[C@H]3OC(CN)=CC[C@H]3N)[C@@H](N)C[C@H]2N)OC[C@]1(C)O | -0.0554 z-score
CCN(CC)CCOC(=O)C(c1ccccc1)c1ccccc1 | 0.953 z-score
Cc1ccnc2c1NC(=O)c1cccnc1N2C1CC1 | 0.442 z-score
C[C@]1(Cn2ccnn2)[C@H](C(=O)O)N2C(=O)C[C@H]2S1(=O)=O | 0.234 z-score

Study 2
Target: Beta-1 adrenergic receptor (ADRB1, Homo sapiens, UniProt P08588)
Sequence of UniProt P08588 (whole entry, looked up): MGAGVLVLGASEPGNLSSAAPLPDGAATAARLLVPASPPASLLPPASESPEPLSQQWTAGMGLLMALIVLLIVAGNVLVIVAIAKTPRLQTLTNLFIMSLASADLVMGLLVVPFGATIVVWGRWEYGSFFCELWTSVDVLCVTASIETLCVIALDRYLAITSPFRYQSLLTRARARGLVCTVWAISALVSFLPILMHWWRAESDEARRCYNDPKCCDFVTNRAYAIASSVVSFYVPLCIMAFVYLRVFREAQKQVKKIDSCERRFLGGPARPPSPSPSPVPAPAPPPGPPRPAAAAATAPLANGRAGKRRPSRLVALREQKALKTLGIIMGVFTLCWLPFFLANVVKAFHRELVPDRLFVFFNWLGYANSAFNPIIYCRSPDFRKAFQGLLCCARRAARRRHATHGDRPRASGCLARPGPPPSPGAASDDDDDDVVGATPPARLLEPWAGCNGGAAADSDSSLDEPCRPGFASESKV
Action: antagonist
Structure (SMILES) | IC50 [µM]
COc1ccccc1N1CCN([C@H]2[C@@H]3OC[C@@H](O3)[C@@H](NCc3ccco3)[C@@H]2O)CC1 | ≥ 100
CC(C)(C)NCC(O)COc1ccccc1-c1ccccc1 (centres unmarked) | ≥ 100
O=C(Nc1ccccc1C(=O)N1CCOCC1)c1ccc2ccccc2n1 | ≥ 100
CN(C)CC(O)c1cc2n(n1)CCN(C(=O)CCc1ccc(=O)[nH]n1)C2 (centres unmarked) | ≥ 100
COc1ccccc1N1CCN(C(=O)c2cc(Br)c[nH]2)CC1 | ≥ 100
COc1ccc(CNCc2ccc(C)s2)cc1OCC(O)CN1CCCCC1 (centres unmarked) | ≥ 100
Cc1ccccc1Oc1cccc2c(=O)cc(N3CCOCC3)[nH]c12 | ≥ 100
O=C(O)COc1ccc(-c2nccc3c2C(=O)N(Cc2c[nH]c4ccccc24)CC(COc2cccc(N4CCOCC4)c2)O3)cc1 (centres unmarked) | ≥ 100
COc1ccccc1N1CCN(C(=O)[C@@H]2Cc3c[nH]c4cccc(c34)[C@H](CC(C)C)N2)CC1 | ≥ 100
COc1ccc(Cc2nnc(SCc3cc(=O)oc4ccc5ccccc5c34)o2)cc1 | ≥ 100
COc1cc(OC)c2c(OC)c(-c3ccc4c(c3)OCO4)c(=O)oc2c1 | ≥ 100
Cc1ccsc1-c1n[nH]c2ncc(-c3ccc(F)cc3)nc12 | ≥ 100
Cc1oc(C(O)c2cccc(O)c2)nc1C(=O)Nc1ccc(N2CCOCC2)cc1 (centres unmarked) | ≥ 100
OC(c1ccc2c(c1)CCO2)c1nc(Nc2ccccc2)n[nH]1 (centres unmarked) | ≥ 100
CN(C)Cc1cc(CC2(NCc3ccc(N(C)C)cc3)COC2)no1 | ≥ 100
COc1ccccc1N1CCN([S+](=O)([O-])c2ccc(C)c(C)c2C)CC1 | ≥ 100
CC#CCn1cc2c3c(cccc31)[C@H](CC(C)C)N[C@H](C(=O)NCc1ccccc1)C2 | ≥ 100
O=C(c1cc(-c2ccccc2)nc2ccccc12)N1CCc2c(nc[nH]c2=O)C1 | ≥ 100
Cc1cc(C(C)Nc2ccccc2)c2nc(N3CCOCC3)cc(=O)n2c1 (centres unmarked) | ≥ 100

Study 3
Structure (SMILES): CN1CCN(c2ccc3nc(-c4c(N)c5c(F)cccc5[nH]c4=O)[nH]c3c2)CC1
Effect on: enzyme activity
Action: inhibitor
Concentration: 0.5 µM
Reference: control
target | remaining activity
PRKG2 (Homo sapiens, UniProt Q13237) | 99%
GRK4 (Homo sapiens, UniProt P32298) | 94.2%
RPS6KA4 (Homo sapiens, UniProt O75676) | 72.1%
NEK3 (Homo sapiens, UniProt P51956) | 88.2%
CDC42BPB (Homo sapiens, UniProt Q9Y5S2) | 99.2%
CAMK4 (Homo sapiens, UniProt Q16566) | 91.7%
MAPK1 (Homo sapiens, UniProt P28482) | 82.4%
Myosin-IIIb (MYO3B, Homo sapiens, UniProt Q8WXR4) | 79.7%
Cyclin-dependent kinase 9, with cyclin K (CDK9, Homo sapiens, UniProt P50750) | 91.1%
PNCK (Homo sapiens, UniProt Q6P2M8) | 104%
DDR2 (Homo sapiens, UniProt Q16832) | 195%
DCLK2 (Homo sapiens, UniProt Q8N568) | 94.1%
MAPK11 (Homo sapiens, UniProt Q15759) | 104%

Study 4
Structure (SMILES): Cn1nc(C(F)(F)F)cc1-c1cnc(N2CCc3cc(S(=O)(=O)Nc4c(F)cc(Cl)cc4F)cc(N4CCCC4=O)c32)nc1
Effect on: cell-free assay
Technique: competition with immobilised ligand
Concentration: 1 µM
target | remaining binding
Tyrosine-protein kinase ABL1, non-phosphorylated (ABL1, Homo sapiens, UniProt P00519, H396P) | 81%
FGFR4 (Homo sapiens, UniProt P22455) | 69%
SBK3 (Homo sapiens, UniProt P0C264) | 79%
PIK3CA (Homo sapiens, UniProt P42336, H1047Y) | 76%
MAP3K14 (Homo sapiens, UniProt Q99558) | 79%
PIK3CD (Homo sapiens, UniProt O00329) | 84%
Tyrosine-protein kinase ABL1, non-phosphorylated (ABL1, Homo sapiens, UniProt P00519) | 73%
KIT (Homo sapiens, UniProt P10721, T670I/V559D) | 88%
EPHA5 (Homo sapiens, UniProt P54756) | 94%
EPHB1 (Homo sapiens, UniProt P54762) | 100%

A few entries again (study 2):
Structure (SMILES) | IC50 [µM]
O=C(O)COc1ccc(-c2nccc3c2C(=O)N(Cc2c[nH]c4ccccc24)CC(COc2cccc(N4CCOCC4)c2)O3)cc1 (centres unmarked) | ≥ 100
COc1ccccc1N1CCN(C(=O)[C@@H]2Cc3c[nH]c4cccc(c34)[C@H](CC(C)C)N2)CC1 | ≥ 100
COc1ccc(Cc2nnc(SCc3cc(=O)oc4ccc5ccccc5c34)o2)cc1 | ≥ 100
COc1cc(OC)c2c(OC)c(-c3ccc4c(c3)OCO4)c(=O)oc2c1 | ≥ 100
Cc1ccsc1-c1n[nH]c2ncc(-c3ccc(F)cc3)nc12 | ≥ 100
Cc1oc(C(O)c2cccc(O)c2)nc1C(=O)Nc1ccc(N2CCOCC2)cc1 (centres unmarked) | ≥ 100
OC(c1ccc2c(c1)CCO2)c1nc(Nc2ccccc2)n[nH]1 (centres unmarked) | ≥ 100
CN(C)Cc1cc(CC2(NCc3ccc(N(C)C)cc3)COC2)no1 | ≥ 100
